Published values pooled from the literature.
Lines come from different studies, so protocols differ. Several values in a cell are separate wells, animals, samples, runs or records. ± gives the spread as reported.
TDP1: Tyrosyl-DNA phosphodiesterase 1 (TDP1, Homo sapiens, UniProt Q9NUW8)
Chain of UniProt Q9NUW8 (whole entry, looked up): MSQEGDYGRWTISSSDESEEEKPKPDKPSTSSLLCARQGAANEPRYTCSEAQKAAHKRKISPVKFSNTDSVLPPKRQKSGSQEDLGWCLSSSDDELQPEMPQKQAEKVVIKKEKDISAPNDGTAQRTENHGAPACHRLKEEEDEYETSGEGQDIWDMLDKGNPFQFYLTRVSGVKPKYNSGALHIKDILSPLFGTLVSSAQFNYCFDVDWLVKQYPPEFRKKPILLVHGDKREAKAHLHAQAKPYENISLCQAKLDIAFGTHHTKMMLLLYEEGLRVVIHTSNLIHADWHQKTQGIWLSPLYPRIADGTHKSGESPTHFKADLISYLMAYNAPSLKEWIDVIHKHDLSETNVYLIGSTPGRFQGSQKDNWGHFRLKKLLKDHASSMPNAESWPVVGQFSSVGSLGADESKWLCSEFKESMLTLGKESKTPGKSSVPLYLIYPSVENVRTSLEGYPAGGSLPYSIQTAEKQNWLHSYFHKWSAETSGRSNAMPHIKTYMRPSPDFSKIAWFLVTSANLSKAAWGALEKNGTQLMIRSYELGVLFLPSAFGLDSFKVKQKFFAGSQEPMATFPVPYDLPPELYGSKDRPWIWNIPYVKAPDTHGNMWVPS

O=C(C=Cc1ccccc1)Nc1ccc(-c2ccc(NC(=O)C=Cc3ccccc3)cc2)cc1 — inhibition (carrageenan paw oedema; albino rat; oral, 50 mg/kg, 3 h): 16.2%
CC(C)(C)NCC(SS(=O)(=O)O)c1ccccc1 (stereo not drawn) — spleen weight (mouse infected with Schistosoma mansoni; 400 mg/kg, day 7 post-infection dosing once, perfusion day 52 post-infection): 0.9 g and 0.8 g and 0.54 g and 0.58 g and 1.25 g
COc1ccccc1C1CC(Nc2ccc(-c3ccc(NC4=NN(C(C)=O)C(c5ccccc5OC)C4)cc3)cc2)=NN1C(C)=O (stereo not drawn) — inhibition (carrageenan paw oedema; albino rat; oral, 50 mg/kg, 3 h; reference: vehicle): 42.2%
Cc1cccc(C)c1CNc1cc(C(=O)N2CCC2)cn2c(C)c(C)nc12 — inhibition (esophageal lesions; rat reflux esophagitis model; oral, 2 mg/kg): 100%
Cc1cnc2nc1Nc1cccc(c1)COC/C=C/COCc1cc(ccc1OCCN1CCOCC1)N2 — reticulocytes (BALB/c mice rhEPO-induced polycythemia; 75 mg/kg): 12.5% and 12.3% and 12.1% and 11.9% and 13.5%
COc1ccc(C2CC(Nc3ccc(-c4ccc(NC5=NN(C(C)=O)C(c6ccc(OC)cc6)C5)cc4)cc3)=NN2C(C)=O)cc1 (stereo not drawn) — inhibition (carrageenan paw oedema; albino rat; oral, 100 mg/kg, 3 h): 69.2%
COc1ccc(C(=O)CCc2cc(C(CCc3ccc(O)cc3OC)c3ccc(O)cc3)c(O)cc2OC)cc1 (racemic) — 15-HETE level (human blood; 0.3 µM, with: A23187): 223 ± 52 pg/mL
O=C(OCc1cccc(O)c1O)c1ccc(O)c(CO)c1 — body weight (C57BL/6J mice, wild type; dose not given, day 14, aneurysm hypertension model, with: angiotensin II 0.8 mg/kg/d for 14 d): 31.2 ± 2 g
CCC(=O)N[C@@H](C)C(=O)OCC(=O)N[C@@H](C)C(=O)O — side-chain scission rate constant (water; pH 2, 65 °C): 0.0074 h⁻¹
CCCCCc1ccc(S(=O)(=O)N2CC2C(=O)OC)cc1 (stereo not drawn) — tumour growth inhibition (mouse, Lewis lung carcinoma; intraperitoneal, 15 mg/kg, 16 doses, day 15): 67%
CCC(CC)n1c(Cc2ccco2)nc2cc(C(=O)N[C@@H](CC(=O)O)c3ccccc3)ccc21 — E/A and E/e' ratio (mouse, HFpEF model (HFD plus L-NAME); ip, 20 mg/kg/day, 2 wk): decreased
O=C(O)c1ccc(Nc2c(-c3ccccc3)nc3ccc(CON=Cc4cc(Cl)nc(-c5ccccc5)c4)cn23)cc1 — inhibition (TDP1; enzyme activity, inhibitor; 100 µM, unpurified compound): 29.9%
CC(=O)[O-].O.O.O.O.[Ni+2].[O-]c1ccc(Br)cc1C=NCCN1CCOCC1 — inhibition (hydroxyl radical scavenging; 80 µM): 15.8%
O=C(C=Cc1ccc(O)cc1)Nc1ccc(-c2ccc(NC(=O)C=Cc3ccc(O)cc3)cc2)cc1 — inhibition (carrageenan paw oedema; albino rat; oral, 50 mg/kg, 3 h): 19.4%
CN(CCNCc1cc(C(=O)[O-])ccc1[O-])CCNCc1cc(C(=O)[O-])ccc1[O-].[Cl-].[Fe+3].[K+].[K+] — kidney contrast enhancement (T1-weighted MRI 4.7 T; BALB/c mice; intravenous, 0.10 mmol/kg, 40 min): decreased
COCCOCCOCCNC(=O)Cc1cc(CC(=O)N[C@H]2C[C@H]3C(=O)Nc4cc(OCCOCCOCCOC)cc(n4)C(=O)N4CCC[C@H]4C(=O)Nc4cc(OCCOCCOCCOC)cc(n4)C(=O)N4CCC[C@H]4C(=O)Nc4cc(OCCOCCOCCOC)cc(n4)C(=O)N3C2)cc(CC(=O)N[C@H]2C[C@H]3C(=O)Nc4cc(OCCOCCOCCOC)cc(n4)C(=O)N4CCC[C@H]4C(=O)Nc4cc(OCCOCCOCCOC)cc(n4)C(=O)N4CCC[C@H]4C(=O)Nc4cc(OCCOCCOCCOC)cc(n4)C(=O)N3C2)c1 — TΔS (anion binding, ITC; water; 298 K, with: sodium sulfate): 5.927 ± 0.0478 kcal/mol
COCC1CN(C2CCN(c3cc(OC)c(Nc4ncc(Br)c(Nc5ccc6c(c5P(C)(C)=O)OCCO6)n4)cc3C)CC2)C1 — objective response rate (RECIST 1.1; advanced EGFR-mutant NSCLC patients; 240 mg once daily): 0%
COc1cc(O)ccc1CCC(c1ccc(O)cc1)c1cc2c(c(C)c1O)OC(c1ccc(O)cc1)CC2 (mixture of isomers) — 15-HETE level (human blood; 0.3 µM, with: A23187): 163 ± 51 pg/mL
COC(=O)c1ccc(C=NOCc2ccc(-c3nc4cc(-c5ccccc5)ccn4c3Nc3ccc(C(=O)O)cc3)cc2)nc1 — inhibition (TDP1; enzyme activity, inhibitor; 100 µM, unpurified compound): 86%
CC(C)OC(=O)[C@H](CO)NCc1cc(Cl)c(OCc2cccc(-c3ccccc3)c2Br)cc1OCc1cccnc1 — tumour volume (hPD-L1 MC-38 tumour, humanised hPD-1 C57BL/6 mouse; oral, 2.5 mg/kg × 21, day 1, baseline): 116 ± 18.1 mm³
COC1CN([C@H]2CC[C@H]([C@@]3(C)Oc4c(Cl)cc(C(=O)NCc5c(SC)cc(C)[nH]c5=O)c(C)c4O3)CC2)C1 — log2 fold change (RNA-seq, measured: CHST2 mouse homolog; mouse, HT-1376 xenograft, whole blood; dose not given; reference: vehicle): 0.504
CC[C@H](C)[C@@H](C(=O)N[C@@H](CC(C)C)C(=O)N[C@@H](CO)C(=O)N[C@@H](CO)C(=O)N[C@H](C(=O)N[C@@H](CCC(=O)O)C(=O)N[C@H](C(=O)NCC(=O)N[C@@H](CO)C(=O)N[C@@H](CC(N)=O)C(=O)N[C@H](C(=O)N1C[C@H](O)C[C@H]1C(N)=O)[C@@H](C)O)C(C)C)[C@@H](C)O)N(C)C(=O)[C@H](C)NC(=O)CN(C)C(=O)[C@H](Cc1ccccc1)NC(=O)[C@H](CO)NC(=O)[C@H](CO)NC(=O)[C@H](CCCNC(=N)N)NC(=O)[C@H](CCC(N)=O)NC(=O)[C@H](CC(C)C)NC(=O)[C@H](Cc1ccccc1)NC(=O)[C@H](CCCC(=O)O)NC(=O)[C@H](C)NC(=O)[C@H](CC(C)C)NC(=O)[C@H](CCCNC(=N)N)NC(=O)[C@H](CCC(=O)O)NC(=O)[C@@H](NC(=O)[C@H](C)NC(=O)[C@@H]1CCCCNC(=O)C[C@H](NC(=O)[C@H](CCCNC(=N)N)NC(=O)CC[C@H](NC(=O)CCCCCCCCCCCCCCCCCCC(=O)O)C(=O)O)C(=O)NCC(=O)N[C@@H]([C@@H](C)O)C(=O)N[C@@H](C)C(=O)N[C@@H]([C@@H](C)O)C(=O)N1)[C@@H](C)O — food intake (male Sprague-Dawley rats; subcutaneous, 30 nmol/kg single dose, 24 h; reference: vehicle): 70.8 ± 1.6%
C#CCOc1ccc(-c2nnc(-c3ccccn3)nn2)cc1 — second order rate constant (1,4-dioxane; 25 °C, with: TCO): 13 ± 1 M⁻¹ s⁻¹
COc1ccc2c(c1)CN(C(=O)CCN1CCC(Cc3ccccc3)CC1)CCS2 — time to sinus rhythm conversion (human; oral, dose not given): 80 min
Nc1nc2cc(CC[C@H]3C[C@@H](n4ccc5c(N)ncnc54)[C@H](O)[C@@H]3O)ccc2cc1Br — tumour volume (NCI-H520 xenograft, mouse; 10.0 mg/kg/day, day 27): 26 ± 3 mm3
CC[C@H](C)[C@@H](C(=O)N[C@@H](CC(C)C)C(=O)N[C@@H](CO)C(=O)N[C@@H](CO)C(=O)N[C@H](C(=O)N[C@@H](CCC(=O)O)C(=O)N[C@H](C(=O)NCC(=O)N[C@@H](CO)C(=O)N[C@@H](CO)C(=O)N[C@H](C(=O)N1C[C@H](O)C[C@H]1C(N)=O)[C@@H](C)O)C(C)C)[C@@H](C)O)N(C)C(=O)[C@H](C)NC(=O)CN(C)C(=O)[C@H](Cc1ccccc1)NC(=O)[C@H](CO)NC(=O)[C@H](CO)NC(=O)[C@H](CCCNC(=N)N)NC(=O)[C@@H](NC(=O)[C@H](CC(C)C)NC(=O)[C@H](Cc1ccccc1)NC(=O)[C@H](Cc1c[nH]cn1)NC(=O)[C@H](C)NC(=O)[C@H](CC(C)C)NC(=O)[C@H](CCCNC(=N)N)NC(=O)[C@H](CCC(=O)O)NC(=O)[C@@H](NC(=O)[C@H](C)NC(=O)[C@@H]1CSSC[C@H](NC(=O)[C@H](CCCNC(=N)N)NC(=O)CC[C@H](NC(=O)CCCCCCCCCCCCCCCCCCC(=O)O)C(=O)O)C(=O)NCC(=O)N[C@@H]([C@@H](C)O)C(=O)N[C@@H](C)C(=O)N[C@@H]([C@@H](C)O)C(=O)N1)[C@@H](C)O)[C@@H](C)O — food intake (male Sprague-Dawley rats; subcutaneous, 30 nmol/kg single dose, 24 h; reference: vehicle): 70.9 ± 1.7%
CN1CCC[C@]1(C)/C=C/S(=O)(=O)NC(=O)Nc1c2c(cc3c1CCC3)CCC2 — IL-18 inhibition (human, whole blood ex vivo; 100 mg twice daily, day 1, 3 h, multiple ascending dose, with: LPS and ATP): 88.9%

Repeated from above:
C#CCOc1ccc(-c2nnc(-c3ccccn3)nn2)cc1 — second order rate constant (1,4-dioxane; 25 °C, with: TCO): 13 ± 1 M⁻¹ s⁻¹
Nc1nc2cc(CC[C@H]3C[C@@H](n4ccc5c(N)ncnc54)[C@H](O)[C@@H]3O)ccc2cc1Br — tumour volume (NCI-H520 xenograft, mouse; 10.0 mg/kg/day, day 27): 26 ± 3 mm3
COCCOCCOCCNC(=O)Cc1cc(CC(=O)N[C@H]2C[C@H]3C(=O)Nc4cc(OCCOCCOCCOC)cc(n4)C(=O)N4CCC[C@H]4C(=O)Nc4cc(OCCOCCOCCOC)cc(n4)C(=O)N4CCC[C@H]4C(=O)Nc4cc(OCCOCCOCCOC)cc(n4)C(=O)N3C2)cc(CC(=O)N[C@H]2C[C@H]3C(=O)Nc4cc(OCCOCCOCCOC)cc(n4)C(=O)N4CCC[C@H]4C(=O)Nc4cc(OCCOCCOCCOC)cc(n4)C(=O)N4CCC[C@H]4C(=O)Nc4cc(OCCOCCOCCOC)cc(n4)C(=O)N3C2)c1 — TΔS (anion binding, ITC; water; 298 K, with: sodium sulfate): 5.927 ± 0.0478 kcal/mol
COc1ccc(C2CC(Nc3ccc(-c4ccc(NC5=NN(C(C)=O)C(c6ccc(OC)cc6)C5)cc4)cc3)=NN2C(C)=O)cc1 (stereo not drawn) — inhibition (carrageenan paw oedema; albino rat; oral, 100 mg/kg, 3 h): 69.2%
